Results collected from several papers.
Several values in a cell are separate wells, animals, samples, runs or records.
HTR2C: 5-hydroxytryptamine receptor 2C (HTR2C, Homo sapiens, UniProt P28335)
UniProt P28335, sequence (whole entry, looked up): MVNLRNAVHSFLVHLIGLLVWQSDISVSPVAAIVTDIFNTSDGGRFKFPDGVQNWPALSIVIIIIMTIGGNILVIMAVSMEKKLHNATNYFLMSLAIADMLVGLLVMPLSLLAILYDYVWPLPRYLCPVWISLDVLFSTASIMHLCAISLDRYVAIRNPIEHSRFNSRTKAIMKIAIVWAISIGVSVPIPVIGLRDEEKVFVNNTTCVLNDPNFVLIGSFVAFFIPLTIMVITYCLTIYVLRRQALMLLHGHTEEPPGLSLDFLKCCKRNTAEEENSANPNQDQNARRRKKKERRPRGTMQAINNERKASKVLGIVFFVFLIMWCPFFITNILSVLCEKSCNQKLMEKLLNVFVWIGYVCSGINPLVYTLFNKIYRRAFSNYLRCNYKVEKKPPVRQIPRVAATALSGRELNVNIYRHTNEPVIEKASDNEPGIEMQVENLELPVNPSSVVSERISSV
OPRD1: Delta-type opioid receptor (OPRD1, Homo sapiens, UniProt P41143)
UniProt P41143, sequence (whole entry, looked up): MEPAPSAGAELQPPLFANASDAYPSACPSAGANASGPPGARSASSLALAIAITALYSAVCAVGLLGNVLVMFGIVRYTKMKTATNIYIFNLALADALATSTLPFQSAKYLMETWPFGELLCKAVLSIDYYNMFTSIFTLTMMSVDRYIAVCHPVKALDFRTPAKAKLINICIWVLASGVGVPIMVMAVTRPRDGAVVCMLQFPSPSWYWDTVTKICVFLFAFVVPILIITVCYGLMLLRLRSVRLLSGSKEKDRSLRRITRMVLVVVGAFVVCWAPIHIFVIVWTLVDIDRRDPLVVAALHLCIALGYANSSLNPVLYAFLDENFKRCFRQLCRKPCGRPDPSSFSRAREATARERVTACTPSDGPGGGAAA
PFF0160c E182D: Dihydroorotate dehydrogenase (quinone), mitochondrial (PFF0160c, Plasmodium falciparum, UniProt Q08210, E182D)
tmk: Thymidylate kinase (tmk, Mycobacterium tuberculosis, UniProt P9WKE1)
CES2: Cocaine esterase (CES2, Homo sapiens, UniProt O00748)
UniProt O00748, sequence (whole entry, looked up): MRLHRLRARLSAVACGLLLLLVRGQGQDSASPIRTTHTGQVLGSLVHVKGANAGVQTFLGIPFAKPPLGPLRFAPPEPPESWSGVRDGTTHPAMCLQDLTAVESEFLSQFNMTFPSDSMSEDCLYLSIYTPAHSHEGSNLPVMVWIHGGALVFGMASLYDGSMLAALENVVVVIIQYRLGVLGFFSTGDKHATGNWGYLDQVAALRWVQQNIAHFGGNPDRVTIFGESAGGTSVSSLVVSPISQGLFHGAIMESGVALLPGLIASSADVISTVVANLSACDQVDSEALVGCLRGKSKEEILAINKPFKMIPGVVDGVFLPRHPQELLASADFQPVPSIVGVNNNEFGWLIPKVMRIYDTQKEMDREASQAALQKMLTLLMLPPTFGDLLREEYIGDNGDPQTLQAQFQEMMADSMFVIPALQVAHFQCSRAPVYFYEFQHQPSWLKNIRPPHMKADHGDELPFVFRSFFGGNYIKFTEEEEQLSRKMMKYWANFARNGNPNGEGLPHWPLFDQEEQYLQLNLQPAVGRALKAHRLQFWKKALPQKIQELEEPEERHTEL
Htr2a: 5-hydroxytryptamine receptor 2A (Htr2a, Mus musculus, UniProt P35363)
UniProt P35363, sequence (whole entry, looked up): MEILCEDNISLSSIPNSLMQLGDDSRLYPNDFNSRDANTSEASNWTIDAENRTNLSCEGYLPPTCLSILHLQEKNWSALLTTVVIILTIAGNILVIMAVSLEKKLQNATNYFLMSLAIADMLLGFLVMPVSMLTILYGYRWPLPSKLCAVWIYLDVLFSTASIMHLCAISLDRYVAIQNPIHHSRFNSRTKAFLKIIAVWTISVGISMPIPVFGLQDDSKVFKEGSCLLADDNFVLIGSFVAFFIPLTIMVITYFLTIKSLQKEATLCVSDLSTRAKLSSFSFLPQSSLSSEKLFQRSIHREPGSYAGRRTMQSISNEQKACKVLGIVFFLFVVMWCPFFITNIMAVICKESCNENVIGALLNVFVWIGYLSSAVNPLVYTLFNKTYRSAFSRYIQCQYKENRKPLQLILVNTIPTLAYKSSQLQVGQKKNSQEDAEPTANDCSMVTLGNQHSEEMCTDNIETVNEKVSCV
UniProt P21554, sequence (whole entry, looked up): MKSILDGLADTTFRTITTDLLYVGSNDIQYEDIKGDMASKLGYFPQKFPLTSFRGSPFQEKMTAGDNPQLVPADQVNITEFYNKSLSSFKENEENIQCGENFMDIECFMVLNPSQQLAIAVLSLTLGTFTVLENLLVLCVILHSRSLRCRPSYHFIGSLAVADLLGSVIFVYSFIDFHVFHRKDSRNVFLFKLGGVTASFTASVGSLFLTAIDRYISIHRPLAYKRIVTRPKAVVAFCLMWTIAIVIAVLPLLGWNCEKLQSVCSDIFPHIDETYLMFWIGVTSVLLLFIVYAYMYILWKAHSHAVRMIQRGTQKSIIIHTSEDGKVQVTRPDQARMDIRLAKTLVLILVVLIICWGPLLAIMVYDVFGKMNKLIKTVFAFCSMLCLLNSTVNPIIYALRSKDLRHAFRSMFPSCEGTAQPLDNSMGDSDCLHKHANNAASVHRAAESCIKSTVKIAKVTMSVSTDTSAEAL
UniProt P23739, sequence (whole entry, looked up): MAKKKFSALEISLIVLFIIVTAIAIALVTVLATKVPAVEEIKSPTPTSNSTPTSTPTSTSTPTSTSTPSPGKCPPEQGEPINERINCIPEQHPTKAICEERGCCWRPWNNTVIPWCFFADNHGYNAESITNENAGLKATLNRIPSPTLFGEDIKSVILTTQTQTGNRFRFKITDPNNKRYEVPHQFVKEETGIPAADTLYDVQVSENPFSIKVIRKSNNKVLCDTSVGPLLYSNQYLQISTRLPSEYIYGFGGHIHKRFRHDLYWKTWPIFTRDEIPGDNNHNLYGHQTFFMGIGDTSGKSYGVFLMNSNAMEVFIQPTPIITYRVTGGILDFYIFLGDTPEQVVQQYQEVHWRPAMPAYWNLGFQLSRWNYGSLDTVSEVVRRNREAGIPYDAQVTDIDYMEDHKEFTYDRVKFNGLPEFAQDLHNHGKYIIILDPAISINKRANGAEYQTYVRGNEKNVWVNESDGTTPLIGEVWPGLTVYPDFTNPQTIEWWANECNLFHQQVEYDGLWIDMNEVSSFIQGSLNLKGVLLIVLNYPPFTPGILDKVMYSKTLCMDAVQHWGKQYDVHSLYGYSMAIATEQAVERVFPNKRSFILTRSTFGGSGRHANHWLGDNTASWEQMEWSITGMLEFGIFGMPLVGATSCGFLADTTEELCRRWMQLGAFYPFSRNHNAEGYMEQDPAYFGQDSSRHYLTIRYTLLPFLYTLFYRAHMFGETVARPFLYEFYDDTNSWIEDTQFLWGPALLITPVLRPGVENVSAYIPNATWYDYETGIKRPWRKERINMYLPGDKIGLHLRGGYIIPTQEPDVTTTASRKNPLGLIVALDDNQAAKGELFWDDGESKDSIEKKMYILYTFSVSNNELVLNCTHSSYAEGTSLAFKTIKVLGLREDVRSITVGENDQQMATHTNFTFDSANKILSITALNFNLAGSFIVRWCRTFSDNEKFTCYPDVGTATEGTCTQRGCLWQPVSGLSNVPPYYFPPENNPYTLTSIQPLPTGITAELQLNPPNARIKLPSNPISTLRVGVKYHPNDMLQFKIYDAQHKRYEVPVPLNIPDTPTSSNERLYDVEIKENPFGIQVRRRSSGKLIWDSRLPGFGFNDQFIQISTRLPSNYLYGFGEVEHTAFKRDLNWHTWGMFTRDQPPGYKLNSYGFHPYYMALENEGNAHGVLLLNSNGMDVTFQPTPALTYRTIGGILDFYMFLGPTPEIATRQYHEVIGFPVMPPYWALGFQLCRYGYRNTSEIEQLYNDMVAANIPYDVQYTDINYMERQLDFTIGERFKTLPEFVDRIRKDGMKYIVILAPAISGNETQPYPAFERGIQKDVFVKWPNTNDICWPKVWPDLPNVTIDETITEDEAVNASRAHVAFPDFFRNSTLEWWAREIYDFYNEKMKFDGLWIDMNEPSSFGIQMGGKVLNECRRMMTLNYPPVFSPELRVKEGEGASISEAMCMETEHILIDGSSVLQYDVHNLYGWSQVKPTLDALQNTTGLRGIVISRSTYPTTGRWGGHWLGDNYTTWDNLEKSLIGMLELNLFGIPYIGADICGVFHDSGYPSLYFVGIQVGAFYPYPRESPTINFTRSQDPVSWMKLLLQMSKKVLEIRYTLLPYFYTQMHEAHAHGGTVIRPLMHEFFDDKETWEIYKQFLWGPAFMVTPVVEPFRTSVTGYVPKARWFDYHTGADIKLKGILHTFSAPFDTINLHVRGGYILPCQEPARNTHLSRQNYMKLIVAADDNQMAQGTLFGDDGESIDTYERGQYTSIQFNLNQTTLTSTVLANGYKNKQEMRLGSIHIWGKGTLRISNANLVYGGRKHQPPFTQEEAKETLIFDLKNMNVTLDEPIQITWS
UniProt Q9NRH2, sequence (whole entry, looked up): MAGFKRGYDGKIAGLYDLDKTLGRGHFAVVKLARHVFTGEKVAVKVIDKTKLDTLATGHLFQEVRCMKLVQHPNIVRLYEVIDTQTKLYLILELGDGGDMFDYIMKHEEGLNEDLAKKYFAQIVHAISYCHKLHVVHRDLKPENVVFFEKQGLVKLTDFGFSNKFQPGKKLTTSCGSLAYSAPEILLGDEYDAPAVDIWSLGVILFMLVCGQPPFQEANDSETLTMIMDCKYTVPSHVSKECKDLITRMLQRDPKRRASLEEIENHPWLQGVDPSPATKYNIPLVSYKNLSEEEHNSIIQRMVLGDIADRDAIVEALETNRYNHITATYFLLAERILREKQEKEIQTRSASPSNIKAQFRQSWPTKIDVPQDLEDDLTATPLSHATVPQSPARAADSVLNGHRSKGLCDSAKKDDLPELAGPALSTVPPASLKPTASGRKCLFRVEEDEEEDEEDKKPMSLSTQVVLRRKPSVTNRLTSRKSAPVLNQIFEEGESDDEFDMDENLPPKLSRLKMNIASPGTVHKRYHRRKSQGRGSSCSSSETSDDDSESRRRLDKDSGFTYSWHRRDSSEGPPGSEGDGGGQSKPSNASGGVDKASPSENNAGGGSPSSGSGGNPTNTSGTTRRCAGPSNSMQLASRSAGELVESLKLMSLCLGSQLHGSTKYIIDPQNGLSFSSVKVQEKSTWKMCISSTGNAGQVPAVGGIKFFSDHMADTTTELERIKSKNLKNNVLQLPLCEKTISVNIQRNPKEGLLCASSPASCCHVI

CCC(NCCc1cc(OC)c(C#N)cc1OC)c1ccccc1O (centres unmarked) — EC50 (HTR2C; calcium signal, agonist): 0.77 µM
CC(N)Cc1c[nH]c2ccc(O)cc12 (centres unmarked) — EC50 (HTR2A (Homo sapiens, UniProt P28223); calcium signal, agonist): 0.0362 µM
CC1(C)C(C(=O)c2cn(CCCCCF)c3ccccc23)C1(C)C — Ki (CNR1 (Homo sapiens, UniProt P21554); ligand displacement, radioligand; cell membranes): < 0.03 µM and 0.024 µM
CN(C[C@@H]1COCCO1)S(=O)(=O)Nc1ccc2ccc3ncc(-c4cnn(C)c4)cc3c(=O)c2c1 — Kd (MET (Homo sapiens, UniProt P08581, C1091S/C1146S/K1232C); binding): 0.117 µM
Cc1nn(C)cc1-c1nc2c(N3CCN(Cc4ccc(Cl)cc4)CC3)c(Cl)cnc2[nH]1 — remaining binding (TAOK2 (Homo sapiens, UniProt Q9UL54); binding, competition with immobilised ligand; 1 µM): 73%
O[C@H]1[C@H](O)[C@@H](O)CN2CC[C@H](O)[C@H]12 — Ki (Toxin B (tcdB, Clostridioides difficile, UniProt P18177); enzyme activity, inhibitor): 7110 µM
CCCCCc1cc(O)c2c(c1)OC(C)(C)c1ccc(C)cc1-2 — IC50 (Si (Rattus norvegicus, UniProt P23739); enzyme activity, inhibitor, absorbance): 370 µM
N.N.[Cl][Pt][Cl] — inhibition (REH; cell growth or viability, ATP luminescence; 10 µM, 72 h): 100%
[2H]c1c([2H])c([C@]2([2H])CCCN2C(=O)C(C)(C)Oc2ccc3cn[nH]c3c2)c([2H])c([2H])c1C([2H])([2H])[2H] — remaining binding (MAST1 (Homo sapiens, UniProt Q9Y2H9); binding, competition with immobilised ligand; 1 µM): 76%
O=C(N[C@H]1CC[C@@]2(O)[C@H]3Cc4ccc(O)c5c4[C@@]2(CCN3CC2CC2)[C@H]1O5)c1ccc([N+](=O)[O-])s1 — Ki (OPRD1; ligand displacement, radioligand; cell membranes): 0.0232 µM
COc1ncccc1-c1cnn2ccc(N3CCN(C(=O)OC(C)C)CC3)nc12 — remaining binding (SNRK (Homo sapiens, UniProt Q9NRH2); binding, competition with immobilised ligand; 1 µM): 100%
CCc1nonc1NC(=O)c1oc2c(C)c(C)ccc2c1C — IC50 (PFF0160c E182D; enzyme activity, inhibitor, absorbance): 0.523 µM
COc1cc(CCNCc2ccccc2)c(OC)cc1C#N — EC50 (HTR2C; calcium signal, agonist): 0.082 µM
CC1=C(C(N)=O)C(c2ccc([N+](=O)[O-])o2)NC(=S)N1 (centres unmarked) — IC50 (tmk; enzyme activity, inhibitor, absorbance): 0.193 µM
COc1ccc(CN2CCN(Cc3ccccc3)CC2)cc1 — Ki (TMEM97 (Homo sapiens, UniProt Q5BJF2); ligand displacement, radioligand): 1.18 µM
CCOC(=O)C1=C(C)NC(=O)NC1c1ccc([N+](=O)[O-])o1 (centres unmarked) — IC50 (tmk; enzyme activity, inhibitor, absorbance): 0.393 µM
CC(C)[N+](C)(CCC(C(N)=O)(c1ccccc1)c1ccccc1)C(C)C — IC50 (CHRM2 (Homo sapiens, UniProt P08172); calcium signal, antagonist): 0.01 µM
Cc1nnc2n1-c1ccc(Cl)cc1C(c1ccccc1)=NC2 — IC50 (CES2; enzyme activity, inhibitor, fluorescence; with preincubation): > 100 µM
COc1cc(CCNC(C)c2ccccc2)c(OC)cc1C#N (centres unmarked) — EC50 (HTR2C; calcium signal, agonist): 3.3 µM
CNC(C)Cc1ccc2c(c1)OCO2 (centres unmarked) — Ki (SLC22A1 (Homo sapiens, UniProt O15245); transporter uptake, inhibitor): 1.82 µM
COc1cc(CCN)c(OC)cc1Br — EC50 (Htr2a; G protein activation, agonist, BRET): 0.00347 µM
CC(=O)S(=O)(=O)c1ccc(C(=O)N[C@H]2CC[C@@]3(O)[C@H]4Cc5ccc(O)c6c5[C@@]3(CCN4CC3CC3)[C@H]2O6)s1 — Ki (OPRD1; ligand displacement, radioligand; cell membranes): 0.00949 µM
C#Cc1n[nH]c2c(-c3cn([C@@H](C)c4ccccn4)c(=O)[nH]c3=O)cc(F)cc12 — inhibition (ALK (Homo sapiens, UniProt Q9UM73); enzyme activity, inhibitor; 0.1 µM): 10%
COc1cc(CCNCc2ccccc2OC)c(OC)cc1Br — EC50 (Htr2a; G protein activation, agonist, BRET): 0.000214 µM
O=c1[nH]c2ccccc2n1CCCN1CCC(n2c(=O)[nH]c3cc(Cl)ccc32)CC1 — IC50 (CES2; enzyme activity, inhibitor, fluorescence; with preincubation): > 100 µM
NS(=O)(=O)c1ccc(C(=O)N[C@H]2CC[C@@]3(O)[C@H]4Cc5ccc(O)c6c5[C@@]3(CCN4CC3CC3)[C@H]2O6)s1 — Ki (OPRD1; ligand displacement, radioligand; cell membranes): 0.0178 µM
NCCc1ccc(Oc2ccc(O)cc2)c(I)c1 — IC50 (Slc6a4 (Mus musculus, UniProt Q60857); transporter uptake, inhibitor, radiometric): 4.5 µM
Nc1ncc(-c2nc(N3CCOCC3)nc(N3CCOCC3)n2)c(C(F)F)n1 — remaining binding (WNK3 (Homo sapiens, UniProt Q9BYP7); binding, competition with immobilised ligand; 10 µM): 56%
O=C(N[C@H]1CC[C@@]2(O)[C@H]3Cc4ccc(O)c5c4[C@@]2(CCN3CC2CC2)[C@H]1O5)c1ccc(C(F)F)s1 — Ki (OPRD1; ligand displacement, radioligand; cell membranes): 0.0292 µM
COc1cc(CCNC(C)c2ccccc2O)c(OC)cc1C#N (centres unmarked) — Ki (ADRA2C (Homo sapiens, UniProt P18825); cell-free assay, radioligand): 0.531 µM
N#Cc1ccc(C(=O)N[C@H]2CC[C@@]3(O)[C@H]4Cc5ccc(O)c6c5[C@@]3(CCN4CC3CC3)[C@H]2O6)s1 — Ki (OPRD1; ligand displacement, radioligand; cell membranes): 0.0291 µM
Cc1ccc(NC(=O)c2cc(S(=O)(=O)NC(C)(C)C)ccc2C)nc1 — IC50 (PFF0160c E182D; enzyme activity, inhibitor, absorbance): > 10 µM

A few entries again:
CCOC(=O)C1=C(C)NC(=O)NC1c1ccc([N+](=O)[O-])o1 (centres unmarked) — IC50 (tmk; enzyme activity, inhibitor, absorbance): 0.393 µM
CC(C)[N+](C)(CCC(C(N)=O)(c1ccccc1)c1ccccc1)C(C)C — IC50 (CHRM2 (Homo sapiens, UniProt P08172); calcium signal, antagonist): 0.01 µM
Cc1nnc2n1-c1ccc(Cl)cc1C(c1ccccc1)=NC2 — IC50 (CES2; enzyme activity, inhibitor, fluorescence; with preincubation): > 100 µM
COc1cc(CCNC(C)c2ccccc2)c(OC)cc1C#N (centres unmarked) — EC50 (HTR2C; calcium signal, agonist): 3.3 µM
CNC(C)Cc1ccc2c(c1)OCO2 (centres unmarked) — Ki (SLC22A1 (Homo sapiens, UniProt O15245); transporter uptake, inhibitor): 1.82 µM
